Experimental data collected from several papers.
Protocols differ between the studies behind these lines. ± marks the error that the study gave.

`CCCC[C@H](NC(=O)[C@@H](NC(=O)[C@H](CC(=O)O)NC(=O)[C@H](CCC(N)=O)NC(=O)[C@H](CC(C)C)NC(=O)[C@H](CC(C)C)NC(=O)[C@H](CCCN)NC(=O)[C@H](CCCNC(=N)N)NC(=O)[C@H](C)NC(=O)[C@H](CO)NC(=O)[C@H](CC(C)C)NC(=O)[C@H](CCC(N)=O)NC(=O)[C@H](CC)NC(=O)[C@H](CC(C)C)NC(=O)[C@@H](NC(=O)[C@H](CCCN)NC(=O)[C@H](CCCNC(=N)N)NC(=O)[C@H](Cc1ccc(O)cc1)NC(=O)[C@H](CO)NC(=O)[C@H](CCC(N)=O)NC(=O)[C@@H](NC(=O)[C@H](Cc1ccccc1)NC(=O)[C@@H](NC(=O)[C@H](C)NC(=O)[C@H](CC(=O)O)NC(=O)[C@@H](C)NC(=O)[C@H](Cc1ccc(O)cc1)NC)[C@@H](C)CC)[C@@H](C)O)C(C)C)[C@@H](C)CC)C(=O)N[C@@H](CC(=O)O)C(=O)N[C@@H](CCCNC(=N)N)C(=O)NCC`: “serum GH level” 256 ± 46 ng/mL (GH release, ELISA; male Sprague-Dawley rat, anaesthetised, serum; subcutaneous, 3 µg/kg, 15 min).
The serum insulin of `Cc1cc(O)c(C=O)c2c1C(=O)Oc1c(CO)c(O)c3c(c1O2)C(O)OC3=O` (stereo not drawn) is reported as 7.41 ± 0.2 mIU/L (streptozotocin-induced diabetic male rats, serum; 10 mg/kg, 9 weeks).
The serum creatinine of `COc1ccc(C2CC(c3ccc(C)cc3)=Nc3ccccc3S2)cc1` (stereo not drawn) is reported as 0.73 ± 0.31 mg/dL (Wistar rat, streptozotocin-induced diabetes, serum; 10 mg/kg, 28 days).
`O=c1c(OCc2ccccc2)c(-c2cccc([N+](=O)[O-])c2)oc2ccccc12` — result for “serum LDL cholesterol”: 128 ± 3.39 mg/dL (diabetic rat; 5 mg/kg, 28 days, p-nitrophenyl β-glucoside induced).
`COc1ccc(C2CC(c3ccc(C)cc3)=Nc3ccccc3S2)cc1OC` (stereo not drawn) gave a serum creatinine of 0.71 ± 0.25 mg/dL (Wistar rat, streptozotocin-induced diabetes, serum; 10 mg/kg, 28 days).
`CN(C)c1ccc(-c2oc3ccccc3c(=O)c2OCc2ccccc2)cc1` — result for “serum alkaline phosphatase”: 193 ± 4.03 IU (diabetic rat; 7.5 mg/kg, p-nitrophenyl β-glucoside induced).
`CCCC[C@H](NC(=O)[C@@H](NC(=O)[C@H](CC(=O)O)NC(=O)[C@H](CCC(N)=O)NC(=O)[C@H](CC(C)C)NC(=O)[C@H](CC(C)C)NC(=O)[C@H](CCCN)NC(=O)[C@H](CCCNC(=N)N)NC(=O)[C@H](C)NC(=O)[C@H](CO)NC(=O)[C@H](CC(C)C)NC(=O)[C@H](CCC(N)=O)NC(=O)[C@H](CC)NC(=O)[C@H](CC(C)C)NC(=O)[C@@H](NC(=O)[C@H](CCCN)NC(=O)[C@H](CCCNC(=N)N)NC(=O)[C@H](Cc1ccc(O)cc1)NC(=O)[C@H](CO)NC(=O)[C@H](CCC(N)=O)NC(=O)[C@@H](NC(=O)[C@H](Cc1ccccc1)NC(=O)[C@@H](NC(=O)[C@H](C)NC(=O)[C@H](CC(=O)O)NC(=O)[C@@H](C)NC(=O)CCc1ccc(O)cc1)[C@@H](C)CC)[C@@H](C)O)C(C)C)[C@@H](C)CC)C(=O)N[C@@H](CC(=O)O)C(=O)N[C@H](CCCNC(=N)N)C(=O)NC` — result for “serum GH level”: 204 ± 23.7 ng/mL (GH release, ELISA; male Sprague-Dawley rat, anaesthetised, serum; subcutaneous, 3 µg/kg, 30 min).
`O=c1c(OCc2ccccc2)c(-c2ccc([N+](=O)[O-])cc2)oc2ccccc12`: “serum alkaline phosphatase” 218 ± 4.9 IU (diabetic rat; 5 mg/kg, p-nitrophenyl β-glucoside induced).
Under “serum GH level”, `CCCC[C@H](NC(=O)[C@@H](NC(=O)[C@H](CC(=O)O)NC(=O)[C@H](CCC(N)=O)NC(=O)[C@H](CC(C)C)NC(=O)[C@H](CC(C)C)NC(=O)[C@H](CCCN)NC(=O)[C@H](CCCNC(=N)N)NC(=O)[C@H](C)NC(=O)[C@H](CO)NC(=O)[C@H](CC(C)C)NC(=O)[C@H](CCC(N)=O)NC(=O)[C@H](CC)NC(=O)[C@H](CC(C)C)NC(=O)[C@@H](NC(=O)[C@H](CCCN)NC(=O)[C@H](CCCNC(=N)N)NC(=O)[C@H](Cc1ccc(O)cc1)NC(=O)[C@H](CO)NC(=O)[C@H](CC(N)=O)NC(=O)[C@@H](NC(=O)[C@H](Cc1ccccc1)NC(=O)[C@@H](NC(=O)[C@H](C)NC(=O)[C@H](CC(=O)O)NC(=O)[C@@H](CC)NC(=O)CCc1ccc(O)cc1)[C@@H](C)CC)[C@@H](C)O)C(C)C)[C@@H](C)CC)C(=O)N[C@@H](CO)C(=O)N[C@@H](CCCNC(=N)N)C(=O)NCCCC(N)=O` is recorded as 297 ± 45.6 ng/mL (GH release, ELISA; male rat, anaesthetised, serum; intravenous, 1 µg/kg, 15 min).

Some of these lines once more:
`CN(C)c1ccc(-c2oc3ccccc3c(=O)c2OCc2ccccc2)cc1` — result for “serum alkaline phosphatase”: 193 ± 4.03 IU (diabetic rat; 7.5 mg/kg, p-nitrophenyl β-glucoside induced).
